Measured values pooled from the literature.
A part holds a random share of what one study measured. Values joined by “and” are separate records of one study, mostly repeats; a detail may differ.
Sequence of UniProt Q9UQM7 (whole entry, looked up): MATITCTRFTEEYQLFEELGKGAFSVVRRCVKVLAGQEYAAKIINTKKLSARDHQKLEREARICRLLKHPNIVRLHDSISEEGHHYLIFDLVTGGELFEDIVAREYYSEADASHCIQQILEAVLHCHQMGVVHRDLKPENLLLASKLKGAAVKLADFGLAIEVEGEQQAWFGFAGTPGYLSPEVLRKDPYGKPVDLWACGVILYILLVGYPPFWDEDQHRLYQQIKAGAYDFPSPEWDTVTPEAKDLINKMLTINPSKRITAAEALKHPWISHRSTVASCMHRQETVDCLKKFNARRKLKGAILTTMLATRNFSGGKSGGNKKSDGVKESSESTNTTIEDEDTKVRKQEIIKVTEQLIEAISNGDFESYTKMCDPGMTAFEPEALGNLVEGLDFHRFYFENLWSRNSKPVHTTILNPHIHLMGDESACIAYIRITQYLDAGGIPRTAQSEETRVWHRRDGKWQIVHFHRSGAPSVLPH
Sequence of UniProt P9WI81 (whole entry, looked up): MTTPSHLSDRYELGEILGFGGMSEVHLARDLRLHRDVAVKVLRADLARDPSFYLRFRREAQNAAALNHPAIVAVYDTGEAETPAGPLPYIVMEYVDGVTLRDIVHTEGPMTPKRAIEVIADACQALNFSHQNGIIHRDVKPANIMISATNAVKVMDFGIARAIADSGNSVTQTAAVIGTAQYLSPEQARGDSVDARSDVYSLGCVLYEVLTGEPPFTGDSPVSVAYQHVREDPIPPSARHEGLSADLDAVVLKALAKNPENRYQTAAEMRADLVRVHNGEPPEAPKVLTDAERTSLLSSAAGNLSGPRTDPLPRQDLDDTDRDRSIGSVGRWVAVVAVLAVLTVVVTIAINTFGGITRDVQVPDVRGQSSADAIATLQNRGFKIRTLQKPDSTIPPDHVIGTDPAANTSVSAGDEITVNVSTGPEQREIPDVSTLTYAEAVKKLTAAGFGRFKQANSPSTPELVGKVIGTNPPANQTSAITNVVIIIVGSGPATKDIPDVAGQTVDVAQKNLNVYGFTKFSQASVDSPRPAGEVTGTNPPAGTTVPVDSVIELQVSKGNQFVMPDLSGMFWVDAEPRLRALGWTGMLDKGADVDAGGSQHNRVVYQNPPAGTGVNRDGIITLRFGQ
Sequence of UniProt P28335 (whole entry, looked up): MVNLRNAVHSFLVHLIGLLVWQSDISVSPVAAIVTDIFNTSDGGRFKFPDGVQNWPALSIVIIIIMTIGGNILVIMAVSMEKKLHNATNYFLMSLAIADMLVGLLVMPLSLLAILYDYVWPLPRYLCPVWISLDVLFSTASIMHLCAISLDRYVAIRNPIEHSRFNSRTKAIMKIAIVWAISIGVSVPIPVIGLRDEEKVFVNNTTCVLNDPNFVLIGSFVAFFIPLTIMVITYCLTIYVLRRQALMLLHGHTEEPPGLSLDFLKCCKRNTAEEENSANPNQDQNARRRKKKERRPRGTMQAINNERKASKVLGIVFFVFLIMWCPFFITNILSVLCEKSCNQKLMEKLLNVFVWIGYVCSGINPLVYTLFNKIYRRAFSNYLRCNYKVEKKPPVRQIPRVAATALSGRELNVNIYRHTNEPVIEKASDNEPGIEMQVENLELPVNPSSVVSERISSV

Sample 1
SMILES: CC[C@@H](C)c1nc2cc(Nc3ccnc4ccc(S(=O)(=O)C(C)C)cc34)ccc2s1.Cl
cell line	read-out	technique	concentration	together with	viability
L929		CCK-8	1.563 µM		101% and 102% and 99.1%
L929 RIPK3 knockout			1.563 µM		104% and 97.6% and 103% and 102%
L929		CCK-8	25 µM	zVAD	91.7% and 82.4% and 89.4% and 81.1%
HT-29	necroptosis protection	CCK-8	0.313 µM	TNF-α SMAC mimetic zVAD	14% and 21.3% and 21.7% and 25.9%
L929 RIPK3 knockout			12.5 µM		94.5% and 114% and 113% and 105% and 97.3%
L929 RIPK3 knockout			25 µM	zVAD	92.5% and 71.1% and 69.8% and 96.5%
HT-29	necroptosis protection	CCK-8	2.5 µM	TNF-α SMAC mimetic zVAD	58% and 68.5% and 86% and 64%
HT-29	necroptosis protection	CCK-8	10 µM	TNF-α SMAC mimetic zVAD	85.8% and 100% and 89.7% and 85.2%
L929		CCK-8	6.25 µM	zVAD	105% and 107% and 101%
L929 RIPK3 knockout			100 µM		42.5% and 40.8% and 35.8% and 48.6% and 49.1%
L929 RIPK3 knockout			25 µM		91.1% and 97.7% and 71.1% and 96.3% and 89.5%
L929		CCK-8	6.25 µM		107% and 109%

Sample 2
Target: Bromodomain-containing protein 4, BD1 (BRD4, Homo sapiens, UniProt O60885)
Read-out: acetyl-histone H4 peptide binding
Technique: AlphaScreen displacement
Concentration: 50 µM
Compound	inhibition [%]
COC(=O)c1ccc(NC=C2C(=O)NC(=O)N(c3ccccc3)C2=O)cc1	7.8
CN1C(=O)NC(=O)C(=CNc2ccc(Cl)cc2)C1=O	17.1
O=C1NC(=O)N(c2ccc(F)cc2)C(=O)C1=CNc1ccc2c(c1)OCO2	6.45

Single results of other studies
CRBN/Zinc finger protein Helios: CRBN/Zinc finger protein Helios (Homo sapiens, UniProt Q96SW2+Q9UKS7)
Sequence of UniProt Q96SW2 (whole entry, looked up): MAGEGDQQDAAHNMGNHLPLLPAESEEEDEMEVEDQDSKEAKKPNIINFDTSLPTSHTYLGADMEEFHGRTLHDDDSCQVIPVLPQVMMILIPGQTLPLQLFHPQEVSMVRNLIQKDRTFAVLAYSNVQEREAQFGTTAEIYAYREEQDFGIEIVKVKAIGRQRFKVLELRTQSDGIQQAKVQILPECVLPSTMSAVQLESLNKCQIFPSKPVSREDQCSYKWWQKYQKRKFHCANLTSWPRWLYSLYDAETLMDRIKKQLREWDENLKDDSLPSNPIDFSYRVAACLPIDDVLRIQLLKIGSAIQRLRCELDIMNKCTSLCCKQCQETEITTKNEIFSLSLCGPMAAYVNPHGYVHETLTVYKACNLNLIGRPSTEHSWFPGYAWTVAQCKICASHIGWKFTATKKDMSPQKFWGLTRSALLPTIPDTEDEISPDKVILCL
Sequence of UniProt Q9UKS7 (whole entry, looked up): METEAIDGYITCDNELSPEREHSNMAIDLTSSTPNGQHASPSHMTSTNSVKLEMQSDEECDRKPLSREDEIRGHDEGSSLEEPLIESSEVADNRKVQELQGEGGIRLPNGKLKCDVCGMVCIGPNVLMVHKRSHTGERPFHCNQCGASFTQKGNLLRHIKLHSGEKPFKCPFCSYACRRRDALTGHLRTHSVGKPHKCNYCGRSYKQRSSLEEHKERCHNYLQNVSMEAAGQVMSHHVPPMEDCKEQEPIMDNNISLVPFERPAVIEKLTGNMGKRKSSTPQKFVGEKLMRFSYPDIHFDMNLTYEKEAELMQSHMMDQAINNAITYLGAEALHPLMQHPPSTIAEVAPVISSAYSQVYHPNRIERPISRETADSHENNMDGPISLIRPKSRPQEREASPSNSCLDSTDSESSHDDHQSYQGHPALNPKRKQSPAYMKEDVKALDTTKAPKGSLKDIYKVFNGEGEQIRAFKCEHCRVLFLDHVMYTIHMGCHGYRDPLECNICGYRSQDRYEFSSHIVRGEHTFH
STK33: Serine/threonine-protein kinase 33 (STK33, Homo sapiens, UniProt Q9BYT3)
Sequence of UniProt Q9BYT3 (whole entry, looked up): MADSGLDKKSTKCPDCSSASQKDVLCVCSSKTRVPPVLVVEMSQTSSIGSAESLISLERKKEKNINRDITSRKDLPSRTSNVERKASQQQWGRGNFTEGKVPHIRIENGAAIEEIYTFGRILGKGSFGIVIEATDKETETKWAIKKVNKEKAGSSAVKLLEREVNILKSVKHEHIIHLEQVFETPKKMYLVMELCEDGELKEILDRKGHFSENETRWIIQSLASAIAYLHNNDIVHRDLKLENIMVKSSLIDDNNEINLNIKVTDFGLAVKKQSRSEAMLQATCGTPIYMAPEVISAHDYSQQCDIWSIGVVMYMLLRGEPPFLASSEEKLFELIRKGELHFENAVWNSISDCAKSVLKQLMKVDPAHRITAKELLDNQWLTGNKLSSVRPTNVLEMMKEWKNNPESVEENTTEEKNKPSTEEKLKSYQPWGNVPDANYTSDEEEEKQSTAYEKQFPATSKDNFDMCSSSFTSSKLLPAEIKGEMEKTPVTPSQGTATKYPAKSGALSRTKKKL
Compound	target or system	test	test system	conditions	endpoint	result
O=C1CCC(N2Cc3c(ccc4c3OCC43CCN(Cc4ccccn4)CC3)C2=O)C(=O)N1 (stereo not shown)	CRBN/Zinc finger protein Helios	degrader, HiBiT	HEK293	370.37 nM	protein remaining	52.9%
[N-]=[N+]=CC(=O)CC[C@H](N)C(=O)O			mouse, EL4 tumour-bearing, EL4 tumour	subcutaneous, dose not given	FGAR level	709 nmol/g
C[C@]12CC[C@H]3[C@@H](CCC4=CC(=O)CC[C@@]43C)[C@@H]1CC[C@@H]2OC(=O)CCc1ccccc1	HaCaT			100 µM, 18 h	viability	82.2%
N#Cc1cnc2cnc(NCc3cccnc3)cc2c1Nc1ccc(F)c(Cl)c1	STK33	enzyme activity, inhibitor, radiometric		0.5 µM	remaining activity	87.4%
O=C1CCC(N2Cc3c(ccc4c3OCC43CCN(Cc4ccsc4)CC3)C2=O)C(=O)N1 (stereo not shown)	CRBN/Zinc finger protein Helios	degrader, HiBiT	HEK293	370.37 nM	protein remaining	22.3%
CN1C(=O)COc2c(C(=O)NC3CN4CCC3CC4)cc(Cl)cc21 (stereo not shown)	HaCaT			100 µM, 18 h	viability	99.4%
CCCCN(CCCC)C(=O)CN1C[C@@H](c2cc(OC)c3c(c2)OCO3)[C@H](C(=O)O)[C@H]1CC(C)(C)CCC	pknB (Mycobacterium tuberculosis, UniProt P9WI81)	cell-free assay, competition with immobilised ligand		1 µM	remaining binding	92.8%
C/C=C1\C[C@@H](C)[C@](O)(CO)C(=O)OCC2=CC[N+]3([O-])CC[C@@H](OC1=O)[C@@H]23 (stereo partly shown)	CAMK2A (Homo sapiens, UniProt Q9UQM7)	enzyme activity, inhibitor		10 µM	inhibition	-26%
O=C(c1cc2cc(O)ccc2[nH]1)c1cc2cc(O)ccc2[nH]1	STK33	enzyme activity, inhibitor, radiometric		0.5 µM	remaining activity	77.5%
O=C([C@H]1C[C@H](O)CN1c1ccc(Cl)cc1)N1CC2COCC(C1)N2Cc1ccc(Cl)cc1	HTR2C (Homo sapiens, UniProt P28335)	binding, radioligand binding		10 µM	inhibition	-2.02%

A few entries again (single results of other studies):
Compound	target or system	test	test system	conditions	endpoint	result
O=C1CCC(N2Cc3c(ccc4c3OCC43CCN(Cc4ccsc4)CC3)C2=O)C(=O)N1 (stereo not shown)	CRBN/Zinc finger protein Helios	degrader, HiBiT	HEK293	370.37 nM	protein remaining	22.3%
CN1C(=O)COc2c(C(=O)NC3CN4CCC3CC4)cc(Cl)cc21 (stereo not shown)	HaCaT			100 µM, 18 h	viability	99.4%
